Measured values pooled from the literature.
Protocols differ between the studies behind these lines. Converted amounts (≈) assume the structure as drawn.

SMILES | target or system | assay | test system | setting | scale | endpoint | value
CC(C)NCC(O)COc1ccc(COCCOC(C)C)cc1 (centres unmarked) | H+/organic cation antiporter | cell uptake | hCMEC/D3 | – | – | Vmax | 1220 pmol/min/mg protein
Oc1ccccc1-c1n[nH]cc1-c1ccnc2ccccc12 | CDC15 (Candida albicans) | kinase binding, MIB/MS competition | Candida albicans lysate | 10 µM | baseline: DMSO | log2 fold change | -0.01
COc1cnc2cccc(N3CCc4c(cc(Cn5ccnc5C)cc4-c4cn(C)nc4C(F)(F)F)C3=O)c2c1 | Capan-2 | cell growth, inhibitor | – | 120 h | – | EC50 | 26.2 µM
CN[C@H](CC(C)C)C(=O)N[C@H]1C(=O)N[C@@H](CC(N)=O)C(=O)N[C@H]2C(=O)N[C@H]3C(=O)N[C@H](C(=O)N[C@H](C(=O)O)c4cc(O)cc(O)c4-c4cc3ccc4O)[C@H](O)c3ccc(c(Cl)c3)Oc3cc2cc(c3O[C@@H]2O[C@H](CO)[C@@H](O)[C@H](O)[C@H]2O[C@H]2C[C@](C)(N)[C@H](O)[C@H](C)O2)Oc2ccc(cc2Cl)[C@H]1O | Streptococcus pyogenes | – | 10 isolates | pH 5.5 | – | MIC50 | 0.5 µg/mL (≈ 0.345 µM)
c1coc(-c2n[nH]cc2-c2ccnc3ccccc23)c1 | RTK1 (Candida albicans) | kinase binding, MIB/MS competition | Candida albicans lysate | 10 µM | baseline: DMSO | log2 fold change | 0.03
Cn1cc(-c2ccc(-c3cncc(Cl)c3N3CCC4(CCNC4=O)CC3)cc2)cn1 | COLO 205 | gene expression, microarray, item: FOSL1 mRNA | – | concentration not given, 6 h | baseline: untreated cells | log2 fold change | 1.41
CCn1cc(-c2cc(Cn3ccnc3)cc3c2CCN([C@H](c2cc(OC)ccn2)C2CC2)C3=O)c(C(F)(F)F)n1 | G-401 | cell growth, inhibitor | – | 120 h | – | EC50 | 2.45 µM
NC(=O)c1cnc2[nH]ccc2c1N[C@@H]1[C@@H]2CC3C[C@H]1C[C@@](O)(C3)C2 | – | CD8+ effector memory T cells, flow cytometry | Caucasian humans, peripheral blood | 60 mg single dose | baseline: baseline | percent change | 0.33%
COc1ccc2c3c1O[C@H]1C[C@@H](O)C=C[C@@]31CCN(C)C2 | human seizure ion channel panel | ion current, automated patch clamp | – | – | – | lowest IC30 across channels | > 30 µM
CN[C@@H]1COc2c(S(=O)(=O)NC(=O)Nc3c4c(cc5c3CCC5)CCC4)cnn2C1 | – | item: IL-1β | human participants, whole blood ex vivo | 1800 mg single dose, 24 h, with: LPS/ATP | baseline: baseline | inhibition | 98.9%
CCN(CC)CC(=O)Nc1c(C)cccc1C | H+/organic cation antiporter | cell uptake | hCMEC/D3 | – | – | Km | 218 µM
OC(CCN1CCCCC1)(c1ccccc1)C1CC2C=CC1C2 (centres unmarked) | – | resting-state EEG | healthy elderly humans | oral, 2 mg, eyes open, LS mean | baseline: baseline | change in EEG Alpha2-power Fz-Cz | 34.4%
CC(C)NCC(O)c1ccc(O)c(O)c1 (centres unmarked) | mouse ventricular cardiomyocytes | – | – | dose not given, 0.003 s | – | sarcomere length | 1.8 µm
COCCc1ccc(OCC(O)CNC(C)C)cc1 (centres unmarked) | H+/organic cation antiporter | cell uptake | hCMEC/D3 | – | – | Km | 124 µM
